# Published values from different studies.
# Compare with care: the assays were run in different laboratories.
SMILES,assay,test system,setting,how to read,measurement,value
FC(F)(F)c1ccc(CNc2ccc(Cc3c[nH]c4ncc(Cl)cc34)cn2)cn1,refers to: aspartate aminotransferase increased,patients with TGCT,"oral, 1000 mg/day, grade 3 or higher",,patients with treatment-related adverse event,8%
CNC(=O)c1ccc(-c2cnc3ncc(Cc4ccc5ncccc5c4)n3n2)cc1F,"refers to: Pyrexia, all grades",cancer patients,"oral, 600 mg twice daily, other expansion cohort, any causality",,patients with adverse event,11%
COc1cc(Nc2ncc3c(n2)-c2ccc(Cl)cc2C(c2c(F)cccc2OC)=NC3)ccc1C(=O)O,"refers to: Sepsis, all grades","cancer patients, phase 1/2","oral, dose not given, together with: pembrolizumab",,patients with adverse event,4%
C=CC(=O)Nc1cc(Nc2nccc(-c3cn(C)c4ccccc34)n2)c(OC)cc1N(C)CCN(C)C,refers to: treatment-related grade ≥3 Diarrhea,EGFR-mutant MET-altered NSCLC,"oral, dose not given, all",,patients with adverse events,2%
O=C(Nc1nc2cccc(-c3ccc(CN4CCS(=O)(=O)CC4)cc3)n2n1)C1CC1,refers to: angina pectoris,rheumatoid arthritis patients,"oral, 200 mg once daily, 4 weeks, any relatedness",,patients with adverse event,0%
Cc1cc(-c2nnc(N)nc2-c2ccc(F)cc2)cc(Cl)n1,refers to: myositis,post-IO NSCLC patients,"oral, 100 mg once daily, treatment-related, grade 1",,patients with immune-mediated AE,0%
CNC(=O)c1cc(Oc2ccc(NC(=O)Nc3cc(C(C)(C)C)nn3-c3ccc4ncccc4c3)c(F)c2)ccn1,,patients,"oral, dose not given, cycles 1 and 2, Low Cmax subgroup",,patients with grade 1 cardiac disorders,6%
C[C@@H](Nc1cc(F)cc(F)c1)c1cc(C(=O)N(C)C)cc2c(=O)cc(N3CCOCC3)oc12,"CTCAE v4, refers to: abdominal pain",patients with advanced solid tumours,"oral, dose not given, phase I dose expansion",,patients discontinuing for AE,0%
Cc1cc(NC2CCN(C(=O)OC3CCN(C(=O)/C=C/CN(C)C)C3)CC2)n2ncc(C(C)C)c2n1 (stereo not shown),"Phase I dose escalation CTCAE v4.0, refers to: Constipation",patients with advanced solid tumours,"dose not given, all dose schedules any grade",,patients with adverse event,11%
CCO[C@H]1CCN(Cc2c(OC)cc(C)c3[nH]ccc23)[C@H](c2ccc(C(=O)O)cc2)C1,refers to: Hematuria,"PNH patients, active haemolysis","oral, 100 mg twice daily, extension phase",,patients with adverse event,20%
CCOc1c([C@H](C)n2nc(C)c3c(N)ncnc32)cc(Cl)c(F)c1[C@@H]1CNC(=O)C1,refers to: QTcF change ≤30 ms,previously treated B-cell malignancy,"oral, 10 mg once daily, overall population",baseline: baseline,patients,100%
C[C@@H](c1ccc2nccn2c1)n1nnc2ncc(-c3cnn(C)c3)nc21,refers to: treatment-related grade ≥3 Myalgia,EGFR-mutant MET-altered NSCLC,oral,,patients with adverse events,0%
CC(C)C[C@H](NC(=O)CNC(=O)c1cc(Cl)ccc1Cl)B(O)O,"refers to: Hyperglycaemia, all grades",newly diagnosed multiple myeloma patients,"oral, dose not given, maintenance phase, new onset, cycle 17 or later",,patients with adverse event,17%

# Excerpt of the above:
SMILES,assay,test system,setting,how to read,measurement,value
FC(F)(F)c1ccc(CNc2ccc(Cc3c[nH]c4ncc(Cl)cc34)cn2)cn1,refers to: aspartate aminotransferase increased,patients with TGCT,"oral, 1000 mg/day, grade 3 or higher",,patients with treatment-related adverse event,8%
